Measurements gathered from unrelated publications.
Numbered parts are unrelated; each lists some results of a single study. Substitutions count along the parent as printed.

Block 1
Target: CCNB3, cyclin fold, Cln2 fusion (human)
Technique: yeast growth competition, sequencing
Matrix: yeast
Notes: strong parent motif
Reference: not given
Reading: higher = stronger binding
Quantity: normalised enrichment score
Starting sequence: SCAPER docking peptide (human); SNARRSLNFGGST
Change = SNARRSLNDGGST [F9D]; result = 0.463
Change = SNYRRSLNFGGST [A3Y]; result = 0.407
Change = SNARRSRNFGGST [L7R]; result = -0.13
Change = KNARRSLNFGGST [S1K]; result = 1.07
Change = SNARRSLNFGGET [S12E]; result = 1.71
Change = SNARRSLNRGGST [F9R]; result = 0.161
Change = SNPRRSLNFGGST [A3P]; result = 1.6
Change = SNARRSKNFGGST [L7K]; result = 0.267
Change = SNARRSINFGGST [L7I]; result = 0.557
Change = SNARRSLNFGGSR [T13R]; result = 1.55
Change = SWARRSLNFGGST [N2W]; result = 1.73
Change = SNARRSLNFGGAT [S12A]; result = 1.65
Change = YNARRSLNFGGST [S1Y]; result = 1.63
Change = SNARRSLNFGHST [G11H]; result = 1.16
Change = SNAPRSLNFGGST [R4P]; result = 0.0789
Change = SNARRSLNYGGST [F9Y]; result = 0.398
Change = SNARRSLNEGGST [F9E]; result = -0.0921
Change = SEARRSLNFGGST [N2E]; result = 1.2
Change = MNARRSLNFGGST [S1M]; result = 2.01
Change = SNANRSLNFGGST [R4N]; result = 0.338
Change = SNSRRSLNFGGST [A3S]; result = 0.305
Change = SNARRSLDFGGST [N8D]; result = 1.57

Block 2
Target: Centromere-binding protein 1, full length, His-tagged (CBF1, Saccharomyces cerevisiae, UniProt P17106, residues 1-351)
Sequence of UniProt P17106 (whole entry, looked up): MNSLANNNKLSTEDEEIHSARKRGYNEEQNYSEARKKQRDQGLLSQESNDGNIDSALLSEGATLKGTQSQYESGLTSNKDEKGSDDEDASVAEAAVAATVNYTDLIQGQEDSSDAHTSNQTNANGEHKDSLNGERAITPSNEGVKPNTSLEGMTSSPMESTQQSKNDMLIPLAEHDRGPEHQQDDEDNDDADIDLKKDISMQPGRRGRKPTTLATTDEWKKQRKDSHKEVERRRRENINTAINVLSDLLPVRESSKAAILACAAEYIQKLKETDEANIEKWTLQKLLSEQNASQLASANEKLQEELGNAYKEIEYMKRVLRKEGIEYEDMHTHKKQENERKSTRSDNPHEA
Technique: competition protein-binding microarray
Form: double-stranded DNA, one strand shown
Matrix: in vitro
Concentration: 2 µM
Notes: whole 60-bp probe, lowest competitor level
With: Pho4 competitor, 0.05 µM
Reading: higher = stronger binding
Quantity: fluorescence intensity
All sequences stand within: … GTCTTGATTCGCTTGACGCTGCTG
Oligonucleotide = TTCTTACTAAAATGTAGCGTGCATCCTTATAGGGCT; result = 83.8 a.u.
Oligonucleotide = TTTCAATTCTATCTTACTTTTCATTGCCATTTTACT; result = 85.2 a.u.
Oligonucleotide = GTCTTGTCTCATTGCCGGGTGGGTGTCCCCACTTCA; result = 78.8 a.u.
Oligonucleotide = CATTATGGTAATTAGCACGTGGTCGATGGGGATTGT; result = 1880 a.u.
Oligonucleotide = CTTTCCCGATCTTGGTGTGTGGGTGTAGCACATTTG; result = 80 a.u.
Oligonucleotide = TGTCAAGCCAGACTGGACGTGTGGATGGGGGGCAAA; result = 101 a.u.
Oligonucleotide = AAAGCGGTAATTTGGGTCGTGGGTGCAGATATCTAT; result = 93 a.u.
Oligonucleotide = AAGTGCCGTTTCTAAAACGTGGTCGAATAATCCTCA; result = 176 a.u.
Oligonucleotide = CTAACGAAGGTTTGATGCGTGGGTGACAAGCCAAGT; result = 68.4 a.u.
Oligonucleotide = CGTCCTAGTGATTGCAGTGTGGGTGCCATGAGGAAG; result = 97 a.u.
Oligonucleotide = AAATTACTAAGTTGATCCGTGGGTGACGCCGTATGA; result = 62.9 a.u.
Oligonucleotide = CGTCCTAGTGATTGTACTGTGGGTGCCATGAGGAAG; result = 108 a.u.
Oligonucleotide = ATGAAACGGAGCAGTCATATGATCAAAATACAGAAT; result = 788 a.u.
Oligonucleotide = CTAACGAAGGTTTGCTAAGTGGGTGACAAGCCAAGT; result = 72.1 a.u.
Oligonucleotide = GTCCTTTGGTGGTTCAACGTGAGTCAAGTCCTTGAA; result = 92.7 a.u.
Oligonucleotide = AAGCCAAAGAAACAGCATGTGGTTCAGCGGCCTTGC; result = 75 a.u.
Oligonucleotide = CCAAGGCAGCCTCACCACGGGCGGTCTTGTGGGAAA; result = 46.1 a.u.
Oligonucleotide = CATACCCAACCTTCGCACGTGTTTTAAGATATTTGT; result = 1220 a.u.

Block 3
Target: UBE2Z UBC core domain (UniProt Q9H832)
Technique: yeast two-hybrid
Matrix: yeast
Notes: mostly zero background
Reference: not given
Reading: higher = stronger interaction
Quantity: lacZ reporter activity
B1: TRIM54 RING domain (UniProt Q9BYV2); chain SMDNLEKQLICPICLEMFSKPVVILPCQHNLCRKCANDVFQASNPLWQSRGSTTVSSGGRFRCPSCRHEVVLDRHGV
B2: MYCBP2 RING domain (UniProt O75592); chain TSLKQDADDMCMICFTEALSAAPAIQLDCSHIFHLQCCRRVLENRWLGPRITFGFISCPICKNKINHIVLKD
B3: RNF31 RING domain (UniProt Q96EP0); chain AFLRRLLAQECAVCGWALPHNRMQALTSCECTICPDCFRQHFTIALKEKHITDMVCPACGRPDLTDDTQLL
B4: TRIM37 RING domain (UniProt O94972); chain SVESIAEVFRCFICMEKLRDARLCPHCSKLCCFSCIRRWLTEQRAQCPHCRAPLQLRELVN
B5: TRIM31 RING domain (UniProt Q9BZY9); chain FVNKLQEEVICPICLDILQKPVTIDCGHNFCLKCITQIGETSCGFFKCPLCKTSVRKNAIRF
B6: RLIM RING domain (UniProt Q9NVW2); chain SFGENDALKTCSVCITEYTEGNKLRKLPCSHEYHVHCIDRWLSENSTCPICRRAVLASGNRE
B7: RNF183 RING domain (UniProt Q96D59); chain EQQGRELEAECPVCWNPFNNTFHTPKMLDCCHSFCVECLAHLSLVTPARRRLLCPLCRQPTVLASGQP
B8: RNF122 RING domain (UniProt Q9H9V4); chain AKKLQLYGQTCAVCLEDFKGKDELGVLPCQHAFHRKCLVKWLEVRCVCPMCNKPIASPSEAT
B9: ANAPC11 RING domain (UniProt Q9NYG5); chain GICRMAFNGCCPDCKVPGDDCPLVWGQCSHCFHMHCILKWLHAQQVQQHCPMCRQEWKFKE
B10: RNF152 RING domain (UniProt Q8N8N0); chain ETLSQDSLLECQICFNYYSPRRRPKLLDCKHTCCSVCLQQMRTSQKDVRCPWCRGVTKLPPGFS
B11: RNF2 RING domain (UniProt Q99496); chain SPRSLHSELMCPICLDMLKNTMTTKECLHRFCADCIITALRSGNKECPTCRKKLVSKRSLR
Residues (chain): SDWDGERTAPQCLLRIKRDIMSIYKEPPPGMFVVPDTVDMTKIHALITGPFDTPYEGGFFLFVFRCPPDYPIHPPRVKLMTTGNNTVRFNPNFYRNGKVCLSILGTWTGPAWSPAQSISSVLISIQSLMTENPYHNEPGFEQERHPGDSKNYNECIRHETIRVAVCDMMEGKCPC
Molecule = PEELAVNNDDCAICWDSMQAARKLPCGHLFHNSCLRSWLEQDTSCPTCRMSLNIADNNR (AMFR RING domain (UniProt Q9UKV5)); result = 0
Molecule = MNDVLENELQCIICSEYFIEAVTLNCAHSFCSYCINEWMKRKIECPICRKDIKSKTYSL (RNF8 RING domain (UniProt O76064)); result = 0
Molecule = AEADPLGRFTCPVCLEVYEKPVQVPCGHVFCSACLQECLKPKKPVCGVCRSALAPGVRAV (RNF114 RING domain (UniProt Q9Y508)); result = 0
Molecule = B1 (TRIM54 RING domain); result = 0
Molecule = B2 (MYCBP2 RING domain); result = 0
Molecule = B3 (RNF31 RING domain); result = 0
Molecule = B4 (TRIM37 RING domain); result = 0
Molecule = B5 (TRIM31 RING domain); result = 0
Molecule = B6 (RLIM RING domain); result = 0
Molecule = B7 (RNF183 RING domain); result = 0
Molecule = B8 (RNF122 RING domain); result = 0
Molecule = B9 (ANAPC11 RING domain); result = 0
Molecule = B10 (RNF152 RING domain); result = 0
Molecule = LGTKLEAKYLCSACRNVLRRPFQAQCGHRYCSFCLASILSSGPQNCAACVHEGIYEEGIS (TRAF2 RING domain (UniProt Q12933)); result = 2290
Molecule = B11 (RNF2 RING domain); result = 0

Block 4
Target: ABI1, truncated, D143A, DHFR fusion (Arabidopsis thaliana)
Technique: DHFR PCA, deep sequencing
Matrix: yeast
Notes: methotrexate growth selection, single substitutions
With: (+)-ABA 0.39 µM
Reference: wild-type fitted maximum
Reading: higher = stronger binding
Quantity: relative binding score
Starting sequence: PYL1, truncated, DHFR fusion (Arabidopsis thaliana); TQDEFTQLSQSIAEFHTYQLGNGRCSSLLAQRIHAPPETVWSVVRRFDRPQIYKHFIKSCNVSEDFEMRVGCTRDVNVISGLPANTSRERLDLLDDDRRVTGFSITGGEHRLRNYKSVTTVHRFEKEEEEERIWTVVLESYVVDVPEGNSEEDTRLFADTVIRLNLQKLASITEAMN; partner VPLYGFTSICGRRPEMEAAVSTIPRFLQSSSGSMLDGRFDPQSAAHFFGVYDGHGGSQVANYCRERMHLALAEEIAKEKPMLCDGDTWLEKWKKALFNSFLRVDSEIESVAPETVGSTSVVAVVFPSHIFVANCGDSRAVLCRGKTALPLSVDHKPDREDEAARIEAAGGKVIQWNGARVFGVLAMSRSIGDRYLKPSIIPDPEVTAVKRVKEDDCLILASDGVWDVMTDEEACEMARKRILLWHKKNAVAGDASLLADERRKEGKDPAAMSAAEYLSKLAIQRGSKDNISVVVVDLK
Change = L94A; result = -12.7%
Change = N77F; result = 37.5%
Change = K126W; result = 7.93%
Change = R163N; result = -16.1%
Change = G108K; result = -9.39%
Change = E129M; result = 32.2%
Change = D48E; result = 7.14%
Change = Q10L; result = 18.1%
Change = L28T; result = 8.32%
Change = E109P; result = -0.926%
Change = P146L; result = 18.7%
Change = T120K; result = -7.26%
Change = G81Q; result = 1.03%
Change = E64M; result = 5.8%
Change = V40R; result = -4.43%
Change = L20R; result = 47%
Change = L8S; result = -5.53%
Change = A35V; result = 1.7%
Change = A175V; result = 13.5%
Change = V121E; result = -3.2%
Change = K54Y; result = -20.9%

Block 5
Target: PABPC1L2, full length, GST fusion (mouse, UniProt A0ABA7IW68)
Technique: RNAcompete
Form: RNA
Matrix: in vitro
Concentration: 20 nM
Notes: 7-mer, probes averaged, single round
Reference: mean of 7-mers
Reading: higher = stronger binding
Quantity: 7-mer Z-score
Target sequence (chain): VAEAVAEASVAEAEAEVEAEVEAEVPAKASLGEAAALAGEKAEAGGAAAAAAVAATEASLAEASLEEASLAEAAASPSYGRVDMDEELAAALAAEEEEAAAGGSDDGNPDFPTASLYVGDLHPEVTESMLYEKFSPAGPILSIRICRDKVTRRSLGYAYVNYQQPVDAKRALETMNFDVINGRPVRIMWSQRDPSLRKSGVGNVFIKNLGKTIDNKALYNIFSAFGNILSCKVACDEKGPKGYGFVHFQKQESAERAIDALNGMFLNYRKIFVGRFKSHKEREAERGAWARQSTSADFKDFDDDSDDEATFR
Oligonucleotide = UGUUAGU; result = -0.34
Oligonucleotide = GGAGGGC; result = 0.256
Oligonucleotide = CCUUAGC; result = -0.416
Oligonucleotide = CUAUUAC; result = -0.19
Oligonucleotide = AAAGUAC; result = 1.4
Oligonucleotide = CCUUGUC; result = -0.329
Oligonucleotide = UCUGGCU; result = -0.228
Oligonucleotide = AUGUAUG; result = -0.197
Oligonucleotide = UCCUAUA; result = -0.195
Oligonucleotide = CAUGCGC; result = -0.237
Oligonucleotide = AGGAGAA; result = 0.476
Oligonucleotide = CCUGUUA; result = -0.347
Oligonucleotide = CCUCUUC; result = -0.49
Oligonucleotide = CUAUCUG; result = -0.18
Oligonucleotide = UCUUUAA; result = 0.276
Oligonucleotide = CCCUCAA; result = -0.151
Oligonucleotide = UCCCUUU; result = -0.253

Some of these lines once more (block 2):
Oligonucleotide = TGTCAAGCCAGACTGGACGTGTGGATGGGGGGCAAA; result = 101 a.u.
Oligonucleotide = AAAGCGGTAATTTGGGTCGTGGGTGCAGATATCTAT; result = 93 a.u.
Oligonucleotide = AAGTGCCGTTTCTAAAACGTGGTCGAATAATCCTCA; result = 176 a.u.
Oligonucleotide = CTAACGAAGGTTTGATGCGTGGGTGACAAGCCAAGT; result = 68.4 a.u.
Oligonucleotide = CGTCCTAGTGATTGCAGTGTGGGTGCCATGAGGAAG; result = 97 a.u.
Oligonucleotide = AAATTACTAAGTTGATCCGTGGGTGACGCCGTATGA; result = 62.9 a.u.
Oligonucleotide = CGTCCTAGTGATTGTACTGTGGGTGCCATGAGGAAG; result = 108 a.u.
Oligonucleotide = ATGAAACGGAGCAGTCATATGATCAAAATACAGAAT; result = 788 a.u.
